{"data": "Measurements from different studies", "note": "Each numbered part is a random draw from the data of one study; scales do not carry over between parts."}
{"data": "Study 1", "target": "RNA binding protein fox-1 homolog 2, RRM domain, GST-SBP tag (RBFOX2, Homo sapiens, UniProt O43251-10, residues 100-194)", "method": "RNA Bind-n-Seq", "molecule type": "RNA", "medium": "in vitro", "concentration": "365 nM", "notes": "natural RNA segment, single round, ends assumed", "baseline": "no-protein control", "reading": "higher = stronger binding", "shared flanks, not repeated": "GGGAGUUCUACAGUCCGACGAUC … UGGAAUUCUCGGGUGCCAA", "Target sequence (chain)": "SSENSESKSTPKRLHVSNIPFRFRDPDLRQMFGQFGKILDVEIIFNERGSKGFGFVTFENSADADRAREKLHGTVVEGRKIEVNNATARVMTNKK"}
{"Oligonucleotide": "GUAUGGCUUGUACCCAGAUGGCGCACUGUGCAGCCUGUGUAGCAUGCACAGUGACCCAGCUGAGUGGCAGGUGGUUGGAGGCAAGGACAUUUAUGUGGGCCACAUACCCA", "RBNS enrichment (R)": 0.354}
{"Oligonucleotide": "CUGGCUGCGCCAAUGCCCCAGCUGCUUUGUGGGCAGGCUCUACUAGUUGGCGAGGCACCUGCACAUUUCUGAGUGUCCAUGUUUCCUUUGAGACAUCCCCAUUUCUAUGU", "RBNS enrichment (R)": 0.361}
{"Oligonucleotide": "CUAAUGUGUAUUAAAGUCAGAAAAUAAUAUAUUUAAGGUAUACUAAGUAUGAAUCUGCUAUGAUAAAAGAAAUUCUCACUUCUCAAAUAGUCUUCUUGUAAGGAGCAUUG", "RBNS enrichment (R)": 0.361}
{"Oligonucleotide": "AGAAACAUUAAUUAAGUGUAUGGCUGCCUUUGAAAUACUUGAUGUGUUGUUGUUGCCUUACAGAGGACUACAAGUAUAAAGCAAAUAGCUGUUUUAAAAUUAUGUAAAUA", "RBNS enrichment (R)": 0.621}
{"Oligonucleotide": "AGGUUGGCCGCCUUGAGGAACUAGCCGUGCCCCGCCGGUGUGCACCGCCUCUGCCCCGUGAUGUGCUGGAAGGCUCCUGUCCUCUCCCCACCGCGUCUUGCCUUUGUGCU", "RBNS enrichment (R)": 1.75}
{"Oligonucleotide": "ACAAUCCCAGCAUUUGGGAAGCUGAGGCAAGCAGAUUACCACAAGUUUGAAACCAACCUUGGCUGCAUACAGAUGAUGUAUAUAUAGGCCAGCAUGGGUUACACUGUCUG", "RBNS enrichment (R)": 0.914}
{"Oligonucleotide": "CGCCUAGCAUGCAUACGAAGCCUGGAUCCCAUAUCCCAGCAGGGCAAACCAAUUGCCUCAGGCUAUCUGUGUAAGGUGUCUAUGUGAAACCUAAAUGAAUUUCAUGAUUA", "RBNS enrichment (R)": 1.66}
{"Oligonucleotide": "CUGUUACACUCUAGGAUCUCUCACAGGUCUGUGGCAAUUACUGUUCAUGAUUUCCUGAAAAAAUAUUUUUUUAAAAGAAAACUAUUUUUUUUAAAUACUAGAGAGACAGU", "RBNS enrichment (R)": 0.628}
{"Oligonucleotide": "UGACUUUUAUGCUGUGGCAACUGUGACAGGCUAUUUUUUAGCAAAGAGUUAGACGUUUGUUAUCAUGCCCCAAAAUAGUUUGAGGUAACAUUUUUGGAGGUAGCUUCGUG", "RBNS enrichment (R)": 0.856}
{"data": "Study 2", "target": "Fragile X messenger ribonucleoprotein 1, C-terminal low-complexity region (Fmr1, Mus musculus, UniProt P35922)", "method": "RNA Bind-n-Seq", "molecule type": "RNA", "medium": "in vitro", "concentration": "200 nM", "notes": "whole 134-nt RNA, ends assumed", "added": "150 mM KCl", "baseline": "input library", "reading": "higher = stronger binding", "shared flanks, not repeated": "GGGAGUUCUACAGUCCGACGAUC … UGGAAUUCUCGGGUGUCAAGG"}
{"Oligonucleotide": "UGGGAGGUGGAUUUUGUUUAUUUUUUUAGCUCAUUUCCAGGGGUGGGAAUUUUUUUUUAAUAUGUGUCAUGAAUAAAGUUGUUUAUGAAA", "log2 enrichment": 0.251}
{"Oligonucleotide": "CACAGACAACACGCACCCACACAGACACAGAGGGAAGGGGUUGGGAUGGGGACAGGGUGCACAGCAGGGCGGGGUAGUACCCCAGCCCCU", "log2 enrichment": 1.37}
{"Oligonucleotide": "UGGGAGGUGGAUUUUGUUUAUUUUUUUAGCUCAUUUCCAGGGGCGGGAAUUUUUUUUUAAUAUGUGUCAUGAAUAAAGUUGUUUUUGAAA", "log2 enrichment": 0.16}
{"Oligonucleotide": "GCAUAAUGGAUAUUUUUUAACUUGGCGAGAUGUGUCUCUCAAUCCUGUGGCUUUGGUGAGAGAGUGUGCAGAGAGCAAUGAUAGCAAAUA", "log2 enrichment": 0.298}
{"Oligonucleotide": "UCCUCAAGUCCUGUGCUACACAUCGUAUGUACCGAAUCGGAGGAGGGGAGGGAAAGUAUUAUGUUACGCCGUUCGGAUCUGCACUUCCAG", "log2 enrichment": 0.199}
{"Oligonucleotide": "CCUGUGCUACACAUCGUAUGUACCGAAUCGGGGUUUUUUUGGGUUUUUUUGGUUUUUUUGGAAAGUAUUAUGUUACGCCGUUCGGAUCUG", "log2 enrichment": -0.583}
{"Oligonucleotide": "UGGGAGGUGGAUUUUGUUUAUUUUUUUAGCUCAUUUCCAGGGGUGGGAAUUUUUUUUUAAUAUAUGUCAUGAAUAAAGUUGUUUUUGAAA", "log2 enrichment": 0.191}
{"Oligonucleotide": "AAGUCCUGUGCUACACAUCGUAUGUACCGAAUCAAACCCAAACCCAAACCCCCAAAAAAGUAUUAUGUUACGCCGUUCGGAUCUGCACUU", "log2 enrichment": -0.441}
{"Oligonucleotide": "UCAAGUCCUGUGCUACACAUCGUAUGUACCGAAUCGGGAAAGGGAAAGGGAAAGGAAAGUAUUAUGUUACGCCGUUCGGAUCUGCACUUC", "log2 enrichment": -0.448}
{"data": "Study 3", "target": "RING finger protein unkempt homolog, zinc fingers 1-6, GST-SBP tag (UNK, Homo sapiens, UniProt Q9C0B0, residues 30-357)", "method": "RNA Bind-n-Seq", "molecule type": "RNA", "medium": "in vitro", "concentration": "not given", "notes": "RNA with constant flanks, human and mouse sites, ends assumed", "baseline": "input RNA pool", "reading": "higher = stronger binding", "shared flanks, not repeated": "GGGAGUUCUACAGUCCGACGAUC … CAACAGAGGAUUGAGCAUCA", "sequence of UniProt Q9C0B0 (30-357, looked up)": "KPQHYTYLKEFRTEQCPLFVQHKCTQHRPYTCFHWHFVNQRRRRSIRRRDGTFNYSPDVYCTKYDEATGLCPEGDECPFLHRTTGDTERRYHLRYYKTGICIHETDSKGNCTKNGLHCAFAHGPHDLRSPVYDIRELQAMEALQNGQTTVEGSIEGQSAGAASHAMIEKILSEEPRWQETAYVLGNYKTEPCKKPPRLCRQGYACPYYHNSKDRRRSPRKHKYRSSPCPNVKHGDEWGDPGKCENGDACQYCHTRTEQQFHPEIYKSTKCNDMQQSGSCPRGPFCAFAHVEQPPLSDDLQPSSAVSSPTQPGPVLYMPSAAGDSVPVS"}
{"Oligonucleotide": "GAGCUUAAAGAGUUAGACCCCAAGUUGGCUCCCUGGAUCCAGAGACUGAAUAGUUUUGGCUUGGAUGCCAUAGGACCCUUUUUCACUCGGUACGGAGCAUCUCUCAAGGAGCUUGAUUUC", "bound/input enrichment [ratio]": 0.918}
{"Oligonucleotide": "CAACUCUUUGGGGAUGAUGAAACUGCUUUUGGUUACAAGGGUCUAAAGAUCCUGUUAUACUAUAUUGCUGGUAGCCUGUCAACAAUGUUCCGUGUUGAAUAUGCAUCUAAAGUUGAUGAG", "bound/input enrichment [ratio]": 0.149}
{"Oligonucleotide": "UCUGGGCAGAGUGAGGAGUCCCCUCGGAAACGACGGAAGGCAACGGAAGCCAUAGACUCUCUUAGGAAAUCCAAACGACUUCGGAAUAGGAAGUAGAUUGGAAUAUGGCUCUAGCUCCAG", "bound/input enrichment [ratio]": 2.1}
{"Oligonucleotide": "UGUGAAAUUCACCAUGGGCAGACUGGAGGAAUAUAUGUCCAUGAAAAAGGAAGAGGACAAUUCAUAGAGAAUAAAAUCUAUGCAAACAACUUUGCAGGUGUAUGGAUUACCUCAAAUAGU", "bound/input enrichment [ratio]": 0.434}
{"Oligonucleotide": "GCUGCAUGUCUCCAAACUCUUCAACCAUCCCAAUAUCGUGCCAUAUCGAGCCACUUUUAUUGCAGACAAUGAGCUGUGGGUUGUCACAUCAUUCAUGGCAUACGGUUCUGCAAAAGAUCU", "bound/input enrichment [ratio]": 0.185}
{"Oligonucleotide": "AGCCAAACUGGGGUCCUGGUAGGCCUUUCAACUCAGCGCACUGAUUUUCUUAUUUUCGUUGUUUUAAAAAGCAGCGACAUUUCUGGGUCUGGUGCUAAUACCCCCUUCCCACCUUCUGGG", "bound/input enrichment [ratio]": 0.112}
{"Oligonucleotide": "UAUUUAUAUUUAUUGACUCUUGAGUUGUUUUUGUAUAUUGGUUUUAUGAUGACGUUCGAGUAGUUCUGUAUUUGAAAGUGCCUUUGCAGCUCAGAACCACAGCAACUAUCACAAAUGACU", "bound/input enrichment [ratio]": 0.543}
{"Oligonucleotide": "UUCAACUCUGUAAACAAAGCAAAAAAUUAAAUUUUUAAAUUAAAUCAUUUGAGAUUUUUUUUUUCAAUUGGUGCUUUUAUAUUUUGUUCUCACUCGGACAGAGAAAAAGCUGCAAUUUCA", "bound/input enrichment [ratio]": 0.186}
{"Oligonucleotide": "UUUUCAUUCAACCCCAUGCUGGAUAAAGAAGAAAGAGAGCAAGGCUGGGUGCUGAUCGAUCUUAGUGAAGAAUACACGCGGAUGGGCCUCCCUAAUCAUUACUGGCAGCUCAGCGAUGUG", "bound/input enrichment [ratio]": 0.17}
{"Oligonucleotide": "UACAGAGGAAGGGGUAGAGGGUAUUAUCAAGGAGGAGGAGGGAGAUACCAUCGAGGUGGCUAUAGACCUGUCUGGAAUAGAAGGCACUCUAGGAGUCCUAGACGAGGUCGGUCACGGUCC", "bound/input enrichment [ratio]": 0.347}
{"Oligonucleotide": "CCGGUGGUGAAGACUGAGUUCCAGUUGCUCUACGUGUACCAUCUUGUGGGGCCAUUUCUACAGAGGUUCCAACAGGAGAGAACCCGGUGCAUGAUUGAGAUUGGCGUGGCAUUUUAUGAC", "bound/input enrichment [ratio]": 0.122}
{"data": "Mixed results"}
{"Molecule": "PhoQ, residues 284 288 289 292 302 303 SMMNNA", "target": "PhoP, residues 12 14 15 18 19 STWGI (Escherichia coli, UniProt P23836)", "test": "Sort-seq, item: YFP reporter", "system": "E. coli", "conditions": "PhoQ-PhoP variant library, added: 10 µM Mg2+", "how to read": "baseline: high Mg2+ state, higher = stronger signaling", "measurement": "fold induction", "value": 2.2}
{"note": "A few entries again (study 3):"}
{"Oligonucleotide": "AGCCAAACUGGGGUCCUGGUAGGCCUUUCAACUCAGCGCACUGAUUUUCUUAUUUUCGUUGUUUUAAAAAGCAGCGACAUUUCUGGGUCUGGUGCUAAUACCCCCUUCCCACCUUCUGGG", "bound/input enrichment [ratio]": 0.112}
{"Oligonucleotide": "UCUGGGCAGAGUGAGGAGUCCCCUCGGAAACGACGGAAGGCAACGGAAGCCAUAGACUCUCUUAGGAAAUCCAAACGACUUCGGAAUAGGAAGUAGAUUGGAAUAUGGCUCUAGCUCCAG", "bound/input enrichment [ratio]": 2.1}
{"Oligonucleotide": "CAACUCUUUGGGGAUGAUGAAACUGCUUUUGGUUACAAGGGUCUAAAGAUCCUGUUAUACUAUAUUGCUGGUAGCCUGUCAACAAUGUUCCGUGUUGAAUAUGCAUCUAAAGUUGAUGAG", "bound/input enrichment [ratio]": 0.149}
